{"data": "Measured values from different studies", "note": "Parts stem from different laboratories: compare values within a part only. Changes are numbered by the printed parent chain."}
{"data": "Sample 1", "target": "CEBPE, bZIP domain (human)", "method": "DHFR protein complementation", "sample": "yeast", "notes": "single substitutions, most at no-binding floor", "relative to": "wild-type JUN-FOS pair", "direction": "higher = stronger binding", "parent": "JUN, bZIP domain (human); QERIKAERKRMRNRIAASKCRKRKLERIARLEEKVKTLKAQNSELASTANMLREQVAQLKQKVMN; partner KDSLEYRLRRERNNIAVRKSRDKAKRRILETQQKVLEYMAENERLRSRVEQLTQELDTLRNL"}
{"Variant": "T48C", "binding fitness [natural log]": -1.29}
{"Variant": "E32I", "binding fitness [natural log]": -1.41}
{"Variant": "L52Q", "binding fitness [natural log]": -1.46}
{"Variant": "S43L", "binding fitness [natural log]": -1.04}
{"Variant": "A46K", "binding fitness [natural log]": -1.1}
{"Variant": "L52T", "binding fitness [natural log]": -1.54}
{"Variant": "I28E", "binding fitness [natural log]": -1.07}
{"Variant": "L59C", "binding fitness [natural log]": -1.23}
{"Variant": "L31P", "binding fitness [natural log]": -1.52}
{"Variant": "V35E", "binding fitness [natural log]": -1.34}
{"Variant": "I28V", "binding fitness [natural log]": -1.16}
{"Variant": "M51S", "binding fitness [natural log]": -1.12}
{"Variant": "Q41P", "binding fitness [natural log]": -1.55}
{"Variant": "I28M", "binding fitness [natural log]": -1.11}
{"Variant": "S43A", "binding fitness [natural log]": -0.878}
{"Variant": "L38T", "binding fitness [natural log]": -1.54}
{"data": "Sample 2", "target": "Histone acetyltransferase KAT6A, winged helix 1, GST fusion (KAT6A, Homo sapiens, UniProt Q92794, residues 1-85)", "method": "protein binding microarray", "molecule type": "double-stranded DNA, one strand shown", "sample": "in vitro", "concentration": "not given", "notes": "8-mer, flanks averaged, mean of 2 arrays, mostly near background", "relative to": "not given", "direction": "higher = stronger binding", "Construct (chain)": "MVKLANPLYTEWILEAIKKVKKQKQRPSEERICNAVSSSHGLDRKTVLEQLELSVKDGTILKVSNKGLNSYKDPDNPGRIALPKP"}
{"Oligonucleotide": "TAACTGGA", "E-score": -0.183}
{"Oligonucleotide": "CTTTACAC", "E-score": -0.00721}
{"Oligonucleotide": "GTATCGTA", "E-score": -0.00769}
{"Oligonucleotide": "AATCCACA", "E-score": -0.156}
{"Oligonucleotide": "TCAAAAAA", "E-score": -0.0575}
{"Oligonucleotide": "CCCTTGCG", "E-score": 0.0487}
{"Oligonucleotide": "CAAGGGCG", "E-score": 0.233}
{"Oligonucleotide": "CCGTATAC", "E-score": 0.218}
{"Oligonucleotide": "TCGATGCA", "E-score": -0.21}
{"Oligonucleotide": "ACAGCCGC", "E-score": 0.282}
{"Oligonucleotide": "AACCGAGC", "E-score": 0.174}
{"Oligonucleotide": "AGGCGACC", "E-score": -0.0314}
{"Oligonucleotide": "ACACAGAC", "E-score": -0.216}
{"Oligonucleotide": "CTAGATCC", "E-score": -0.145}
{"Oligonucleotide": "CGAAGCTC", "E-score": -0.081}
{"Oligonucleotide": "CCTAAACC", "E-score": -0.217}
{"Oligonucleotide": "CCTTCTAC", "E-score": -0.17}
{"Oligonucleotide": "ATAAGCCG", "E-score": 0.209}
{"Oligonucleotide": "GAACGCGC", "E-score": 0.405}
{"data": "Sample 3", "target": "RNA binding protein fox-1 homolog 2, RRM domain, GST-SBP tag (RBFOX2, Homo sapiens, UniProt O43251-10, residues 100-194)", "method": "RNA Bind-n-Seq", "molecule type": "RNA", "sample": "in vitro", "concentration": "365 nM", "notes": "natural RNA segment, single round, ends assumed", "relative to": "no-protein control", "direction": "higher = stronger binding", "Construct (chain)": "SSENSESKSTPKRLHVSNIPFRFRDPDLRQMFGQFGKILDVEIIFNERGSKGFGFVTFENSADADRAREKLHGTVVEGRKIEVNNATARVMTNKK"}
{"Oligonucleotide": "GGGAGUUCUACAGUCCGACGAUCGCUAGGUUGCUAGAGACUGCGGUUAGUGCAGAACAGAGGUAAGCCUAAGUCCCAUCCUCAUGAACUUCAAUGCCCAGCCUUUGUGUUUAUUUUAUCUAAAUGUCUCCUUUUGGAAUUCUCGGGUGCCAA", "RBNS enrichment (R)": 0.297}
{"Oligonucleotide": "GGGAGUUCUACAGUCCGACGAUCAUGUAACACUGGCCAGCGGGCCCAGCAAUCUCCAUGUGUACUUAUUACAGUCUUAUUUAACCAGGGGUCCUAACCACUAACAUUGUGACUUUGCUUUGAGACCUUUCCUCUGGAAUUCUCGGGUGCCAA", "RBNS enrichment (R)": 0.537}
{"Oligonucleotide": "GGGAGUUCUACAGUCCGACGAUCACAAAAUAGAUUUUAAGGCUAACUUCUUUUCACUGUUGUGCUCCUUUGCAAAAUGUAUGUUACAAUAGAUAGUGUCAUGUUGCAGGUUCAACGUUAUUUACAUGUAAAUAUGGAAUUCUCGGGUGCCAA", "RBNS enrichment (R)": 0.535}
{"Oligonucleotide": "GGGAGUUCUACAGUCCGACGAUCUCAGAGUUGAACUACCACUGUGGCUGCUUAUUGCUUCCUCCUAAGUUGCUACUGUUCAUAGAACUGGGACUGGGAAUGUUUUCAGGUUGAUGGACUUUUUCAAGCUCAAAUGGAAUUCUCGGGUGCCAA", "RBNS enrichment (R)": 0.587}
{"Oligonucleotide": "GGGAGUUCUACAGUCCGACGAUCAUACCAAAUGUCUUGCAAAGAAAUGUUAUUAAAACCUUGAAUUUUUACAAAUGUAAAAAACAAAAAGUGUAUUAAUGUAUUUGUUCAGGAAAAGCUACAUACCGAAGGGCUGGAAUUCUCGGGUGCCAA", "RBNS enrichment (R)": 0.403}
{"Oligonucleotide": "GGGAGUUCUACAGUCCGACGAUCAAUGUGAUAAGGACUUUAAAAAAGAAGCAUGUAUGUUUUUUACUGUUUGUAAGAAGUACUUUCGUUAAUCUUGCUGCUUAUGUGUCAAUUUAGUGGAAAAGAAAUCCCUUUGGAAUUCUCGGGUGCCAA", "RBNS enrichment (R)": 10.1}
{"Oligonucleotide": "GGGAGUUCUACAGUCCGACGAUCGAACUGUUGGAUGACACCUUUGACAUAUCAGCCAAUAUCAAUCAAGCUGAAGACUCCAGACACUGUCUGUGUGACUGUAACAUUUCUUCAAGGAAAGUAUAGCGUCUAUGUGGAAUUCUCGGGUGCCAA", "RBNS enrichment (R)": 0.21}
{"Oligonucleotide": "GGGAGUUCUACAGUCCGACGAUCGAGAAAAUUAAUGAAUGAGAUGACUAACGGUAGAAAAGUUAUUGCCUAGGAGUGUGAGACUGAUGUUGCUGGACAGAAAGUGAUCCUUAGCCCAGUGUGUCAGCGUCCAUUGGAAUUCUCGGGUGCCAA", "RBNS enrichment (R)": 3.92}
{"Oligonucleotide": "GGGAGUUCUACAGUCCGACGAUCUGGCCAUAAAUACUCAAUCUACCAGUUGGAAAGGGUAUCUAUUUCAAGAUGGGGUGGCGUUUUUCCCAUACUCACUCCUUCUUGAUUCUUCACUGUGGUCUUUUCCAGAUUGGAAUUCUCGGGUGCCAA", "RBNS enrichment (R)": 0.283}
{"Oligonucleotide": "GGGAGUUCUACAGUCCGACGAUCUCUGCUAAAUUUCACUGAUUUUAAUCAUGCUGGAGACCUUAACUCCCAUCCUGAUACAUCCUGAAGUAACACUGUUUUAAACUUUCUUAGUGCUGGAGUAAAAGGUCAAGUGGAAUUCUCGGGUGCCAA", "RBNS enrichment (R)": 0.338}
{"Oligonucleotide": "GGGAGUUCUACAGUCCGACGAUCUGUAUACUCUUCUAUAAAUAAAAGGGAGGAAUAUAUUCUGCUGGAAGCCCAUGAACCAUCGCUGAGGUUCUGAUACAACAUAGAGUUUUUUCCAAGGAGUGAAUGUGGUUUGGAAUUCUCGGGUGCCAA", "RBNS enrichment (R)": 1.26}
{"Oligonucleotide": "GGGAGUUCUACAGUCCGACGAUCAAUUCGUAUAGGGUGCAGAGUAAUUUCUUAUUGUGAGGAACUGUCCAAUGUAUUGCAAGAUGUUCUGCAUACUUGGCUCUCACAUACUAAAUGCUAGUAGCGCCCCCACCUGGAAUUCUCGGGUGCCAA", "RBNS enrichment (R)": 0.269}
{"data": "Sample 4", "target": "Interferon regulatory factor 3, full length, phosphomimetic (IRF3, Homo sapiens, UniProt Q14653, residues 1-427, S386D/S396D/S398D/S402D/T404D/S405D)", "method": "protein-binding microarray", "molecule type": "double-stranded DNA, one strand shown", "sample": "in vitro", "concentration": "2540 nM top", "notes": "60-bp whole probe", "added": "salmon DNA 0.4 mg/ml", "relative to": "random background probes", "direction": "higher = stronger binding", "shared flanks, not repeated": "GCCTAGCAC … GTCTTGATTCGCTTGACGCTGCTG", "chain of UniProt Q14653 (whole entry, unmodified, looked up)": "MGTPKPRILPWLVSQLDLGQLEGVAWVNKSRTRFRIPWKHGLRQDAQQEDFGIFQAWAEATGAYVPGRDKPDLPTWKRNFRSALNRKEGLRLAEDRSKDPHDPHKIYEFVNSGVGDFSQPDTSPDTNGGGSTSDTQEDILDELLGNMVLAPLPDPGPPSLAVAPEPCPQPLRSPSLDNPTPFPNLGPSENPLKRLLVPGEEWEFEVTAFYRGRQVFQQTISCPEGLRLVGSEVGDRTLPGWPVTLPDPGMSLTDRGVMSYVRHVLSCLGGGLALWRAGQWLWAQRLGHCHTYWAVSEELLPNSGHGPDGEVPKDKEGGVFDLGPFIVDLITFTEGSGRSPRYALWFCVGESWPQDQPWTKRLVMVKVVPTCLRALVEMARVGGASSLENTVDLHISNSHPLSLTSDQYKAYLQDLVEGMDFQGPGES"}
{"Oligonucleotide": "TTAGGTTCCGGTTTCGTTTAGTGCTAG", "fitted relative affinity [z-score]": 6.77}
{"Oligonucleotide": "TTAGATTCCAGTTTCGACTAGTGCTAG", "fitted relative affinity [z-score]": 3.64}
{"Oligonucleotide": "TTGGGTCTCCTTATCCTTTAGTGCTAG", "fitted relative affinity [z-score]": 1.68}
{"Oligonucleotide": "TCATGTGTCAACTTTCTCACTGTGCTA", "fitted relative affinity [z-score]": 0.58}
{"Oligonucleotide": "GAAGGTTTCCTTATCCTGACGTGCTAG", "fitted relative affinity [z-score]": 7.72}
{"Oligonucleotide": "TTATGTTTCGGTTCCGGTTAGTGCTAG", "fitted relative affinity [z-score]": 10}
{"Oligonucleotide": "AATCAACTTTTTTTAATTGAGTGCTAG", "fitted relative affinity [z-score]": 0.598}
{"Oligonucleotide": "TTAGGACTGGGGTGTCGGTTAGTGCTA", "fitted relative affinity [z-score]": -0.404}
{"Oligonucleotide": "TTAGGTCTCGGTATCGGTTCGTGCTAG", "fitted relative affinity [z-score]": 3.14}
{"Oligonucleotide": "TCATGTTTGTGTGTGTAACTGTGCTAG", "fitted relative affinity [z-score]": -0.162}
{"Oligonucleotide": "CTTAGAATAATTTTTTAGCTTGTGCTA", "fitted relative affinity [z-score]": -0.242}
{"Oligonucleotide": "GTCGAACTGGGGTATCGAGACGTGCTA", "fitted relative affinity [z-score]": 0.051}
{"Oligonucleotide": "TCATCTCTGCTCCTTCTGACTGTGCTA", "fitted relative affinity [z-score]": 0.987}
{"Oligonucleotide": "TTAGGTATCCTACTGCCTTAGTGCTAG", "fitted relative affinity [z-score]": 2.61}
{"Oligonucleotide": "GACGGTATCGGTATCGGCACGTGCTAG", "fitted relative affinity [z-score]": 4.37}
{"Oligonucleotide": "GTCGATTTCAGTTTCGAGACGTGCTAG", "fitted relative affinity [z-score]": 5.64}
{"Oligonucleotide": "GACGGTCTCCTTACCCTGACGTGCTAG", "fitted relative affinity [z-score]": 1.81}
{"data": "Sample 5", "target": "CCNA1, cyclin fold, Cln2 fusion (human)", "method": "yeast growth competition, sequencing", "sample": "yeast", "notes": "weak parent motif", "relative to": "not given", "direction": "higher = stronger binding", "parent": "HASPIN docking peptide (human); ASLRSVLFGLMNS; partner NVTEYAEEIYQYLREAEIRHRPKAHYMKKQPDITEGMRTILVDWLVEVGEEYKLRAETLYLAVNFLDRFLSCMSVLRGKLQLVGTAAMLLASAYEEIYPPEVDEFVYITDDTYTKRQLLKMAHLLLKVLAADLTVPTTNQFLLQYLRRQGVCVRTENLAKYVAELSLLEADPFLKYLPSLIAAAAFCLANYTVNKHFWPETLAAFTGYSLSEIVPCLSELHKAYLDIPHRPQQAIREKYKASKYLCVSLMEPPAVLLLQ"}
{"Variant": "M11A", "normalised enrichment score": 0.252}
{"Variant": "L10A", "normalised enrichment score": -0.181}
{"Variant": "S13A", "normalised enrichment score": 0.275}
{"Variant": "L3A", "normalised enrichment score": -0.0974}
{"Variant": "S2A", "normalised enrichment score": -0.766}
{"Variant": "G9A", "normalised enrichment score": -0.118}
